Assay results pooled from the literature.
± gives the spread as reported.
Cell line: Caco-2

CC(C)C[C@@H]1NC(=O)[C@H](C)NC(=O)[C@H](Cc2ccccc2)NCC2=CC=C(CN(C)C1=O)O2 — efflux ratio: 24
O.Oc1cc2c(cc1O)[C@@H]1c3ccc(O)c(O)c3OC[C@]1(O)C2 — efflux ratio (100 µg/mL, 2 h; baseline: B-A over A-B): > 2
O=C(Nc1ccc(CN2CCOCC2)c(C(F)(F)F)c1)c1ccc(C#Cc2cccc3cnccc23)cn1 — efflux ratio (baseline: Papp B-A over Papp A-B): 0.627
Cc1cc(C)c(CNC(=O)c2cc(Cl)c3c(c2C)O[C@@](C)([C@H]2CC[C@H](N(C)C)CC2)O3)c(=O)[nH]1 — efflux ratio (10 µM, together with: verapamil 100 µM): 1.13
C[C@H]1O[C@@H](O[C@H]2[C@@H](O)C[C@H](O[C@H]3[C@@H](O)C[C@H](O[C@H]4CC[C@@]5(C)[C@H](CC[C@@H]6[C@@H]5C[C@@H](O)[C@]5(C)[C@@H](C7=CC(=O)OC7)CC[C@]65O)C4)O[C@@H]3C)O[C@@H]2C)C[C@H](O)[C@@H]1O — efflux ratio (baseline: without over with verapamil): 62.8
N#Cc1ccc(C[C@H](Nc2nnc(-c3ccc(F)cc3)o2)C(=O)N2CCc3ccccc32)cc1 — efflux ratio (100 µM, 2 h; baseline: Papp B-A over A-B): 3.9
CC1(C)c2nc(-c3ccc(F)cc3)c(Nc3ccc(F)c(F)c3)n2CCN1C(=O)CN — efflux ratio (baseline: A-B over B-A): 0.47
C[C@]12CC[C@@H]3c4ccc(OS(=O)(=O)O)cc4CC[C@H]3[C@@H]1CCC2=O — efflux ratio (no inhibitor, BCRP (novobiocin) set): 34.2
CC1(C)NC(=O)Cn2c1nc(-c1ccc(F)cc1)c2Nc1ccc(Cl)c(F)c1 — efflux ratio (baseline: A-B over B-A): 0.96
CC1(C)CCC2(CC1)N[C@@H](C(=O)N[C@@H]1CC[C@@H](C(N)=O)OC1)[C@H](c1ccnc(Cl)c1F)[C@]21C(=O)Nc2cc(Cl)ccc21 — efflux ratio (1 µM, 120 min, together with: elacridar 5 µM; baseline: B-A over A-B): 0.68
C#Cc1c(F)ccc2cc(O)cc(-c3ncc4c(N5CC6CCC(C5)N6)nc(OC[C@@]56CCCN5C[C@H](F)C6)nc4c3F)c12 — efflux ratio (no inhibitor, BCRP (novobiocin) set): > 16.3
N#Cc1ccc(-c2cc(=O)c3ccc4[nH]c(C(F)(F)F)nc4c3o2)cc1 — efflux ratio: 3.6
COc1ccc(-c2coc3cc(O)cc(O)c3c2=O)cc1 — efflux ratio (bidirectional transport; 100 µg/mL, 2 h; baseline: Papp BL-AP over Papp AP-BL): 1.04 ± 0.1

Repeated from above:
C[C@H]1O[C@@H](O[C@H]2[C@@H](O)C[C@H](O[C@H]3[C@@H](O)C[C@H](O[C@H]4CC[C@@]5(C)[C@H](CC[C@@H]6[C@@H]5C[C@@H](O)[C@]5(C)[C@@H](C7=CC(=O)OC7)CC[C@]65O)C4)O[C@@H]3C)O[C@@H]2C)C[C@H](O)[C@@H]1O — efflux ratio (baseline: without over with verapamil): 62.8
N#Cc1ccc(-c2cc(=O)c3ccc4[nH]c(C(F)(F)F)nc4c3o2)cc1 — efflux ratio: 3.6
